Published values gathered from unrelated publications.
Each numbered part is a random draw from the data of one study; scales do not carry over between parts.
UniProt Q9XID4, sequence (whole entry, looked up): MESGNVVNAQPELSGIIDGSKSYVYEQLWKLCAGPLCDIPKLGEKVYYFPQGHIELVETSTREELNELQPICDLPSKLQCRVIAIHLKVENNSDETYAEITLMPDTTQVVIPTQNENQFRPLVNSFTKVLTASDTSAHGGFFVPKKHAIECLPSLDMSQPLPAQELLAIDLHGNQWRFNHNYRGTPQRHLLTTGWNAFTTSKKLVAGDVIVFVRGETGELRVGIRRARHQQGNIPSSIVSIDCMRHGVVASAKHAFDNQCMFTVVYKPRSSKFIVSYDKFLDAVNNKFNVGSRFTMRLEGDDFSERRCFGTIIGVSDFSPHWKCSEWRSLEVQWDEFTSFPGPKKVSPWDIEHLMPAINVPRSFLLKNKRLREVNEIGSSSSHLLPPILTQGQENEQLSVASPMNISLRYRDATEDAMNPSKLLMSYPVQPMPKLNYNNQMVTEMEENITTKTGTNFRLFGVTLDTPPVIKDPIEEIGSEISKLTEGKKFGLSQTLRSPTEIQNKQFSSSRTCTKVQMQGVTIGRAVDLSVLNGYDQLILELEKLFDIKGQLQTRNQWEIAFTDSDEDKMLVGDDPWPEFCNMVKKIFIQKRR
UniProt Q9C7I9, sequence (whole entry, looked up): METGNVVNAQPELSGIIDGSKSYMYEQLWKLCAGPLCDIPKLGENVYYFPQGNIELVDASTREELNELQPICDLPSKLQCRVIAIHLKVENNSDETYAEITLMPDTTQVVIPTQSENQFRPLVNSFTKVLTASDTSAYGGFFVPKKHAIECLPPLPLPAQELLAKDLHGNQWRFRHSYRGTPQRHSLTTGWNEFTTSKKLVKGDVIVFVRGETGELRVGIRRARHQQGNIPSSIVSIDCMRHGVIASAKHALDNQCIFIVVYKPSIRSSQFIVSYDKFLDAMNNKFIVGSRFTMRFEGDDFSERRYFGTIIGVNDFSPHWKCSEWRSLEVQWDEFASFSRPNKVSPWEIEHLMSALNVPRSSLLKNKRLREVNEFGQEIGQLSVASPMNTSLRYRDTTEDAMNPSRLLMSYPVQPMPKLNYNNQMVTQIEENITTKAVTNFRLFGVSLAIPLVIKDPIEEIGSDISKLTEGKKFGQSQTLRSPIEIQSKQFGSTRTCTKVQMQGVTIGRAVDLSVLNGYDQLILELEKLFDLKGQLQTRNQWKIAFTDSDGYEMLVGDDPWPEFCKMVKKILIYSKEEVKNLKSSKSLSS
UniProt Q8LAL2, sequence (whole entry, looked up): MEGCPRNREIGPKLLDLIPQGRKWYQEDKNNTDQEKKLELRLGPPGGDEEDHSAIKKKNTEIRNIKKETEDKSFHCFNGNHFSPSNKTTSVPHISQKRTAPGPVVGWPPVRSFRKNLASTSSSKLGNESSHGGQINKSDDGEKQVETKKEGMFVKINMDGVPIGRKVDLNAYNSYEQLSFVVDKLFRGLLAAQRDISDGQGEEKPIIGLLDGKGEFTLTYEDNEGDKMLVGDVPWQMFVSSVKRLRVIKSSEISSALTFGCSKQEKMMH
UniProt Q38828, sequence (whole entry, looked up): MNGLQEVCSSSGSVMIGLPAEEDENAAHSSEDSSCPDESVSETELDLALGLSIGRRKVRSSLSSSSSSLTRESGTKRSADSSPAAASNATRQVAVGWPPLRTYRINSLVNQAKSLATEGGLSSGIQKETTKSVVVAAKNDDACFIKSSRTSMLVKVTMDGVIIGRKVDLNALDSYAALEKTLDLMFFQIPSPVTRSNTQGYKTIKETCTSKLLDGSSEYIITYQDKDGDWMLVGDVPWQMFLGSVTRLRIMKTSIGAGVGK

Study 1 — method: aptamer microarray, sandwich; molecule type: DNA with 2'F-ANA; sample: in vitro; tested at: 200 nM; added: Cy3 exosite-II aptamer, 400 nM; reading: higher = stronger binding; sequence: GGTTGGTGTGGTTGG
Target: Prothrombin, mature alpha-thrombin (F2, Homo sapiens, UniProt P00734)
Notes: whole 15-mer aptamer, many near background
Modification | mean fluorescence intensity
2'F-ANA at 4 5 7 9 12 14 15 | 46.2 a.u.
2'F-ANA at 2 4 5 6 7 9 10 11 12 13 14 15 | 44.7 a.u.
2'F-ANA at 2 6 8 12 13 14 15 | 165 a.u.
2'F-ANA at 1 2 3 4 5 9 12 | 136 a.u.
2'F-ANA at 1 8 9 11 12 13 | 274 a.u.
2'F-ANA at 2 3 5 6 8 9 11 12 13 14 | 76.1 a.u.
2'F-ANA at 1 2 3 4 6 10 12 13 15 | 61.7 a.u.

Study 2 — method: protein binding microarray; molecule type: double-stranded DNA, one strand shown; sample: in vitro; tested at: not given; relative to: not given; reading: higher = stronger binding
Target: Histone acetyltransferase KAT6A, winged helix 2, GST fusion (KAT6A, Homo sapiens, UniProt Q92794, residues 85-181)
Notes: 8-mer, flanks averaged, mean of 2 arrays, mostly near background
Construct (chain): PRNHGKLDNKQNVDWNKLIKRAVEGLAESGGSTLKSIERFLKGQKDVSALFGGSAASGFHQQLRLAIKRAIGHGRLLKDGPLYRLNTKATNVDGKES
Sequence | E-score
AAAGCTGA | 0.14
GTCCCTCA | 0.0598
GATTCGAA | 0.112
AAATAACA | -0.127
GAGGCACA | 0.0561
CTCGCGCA | 0.0929

Study 3 — Molecule: B1 (IAA5); method: two-hybrid; relative to: out of 4 tests; reading: higher = firmer interaction
T1: itself; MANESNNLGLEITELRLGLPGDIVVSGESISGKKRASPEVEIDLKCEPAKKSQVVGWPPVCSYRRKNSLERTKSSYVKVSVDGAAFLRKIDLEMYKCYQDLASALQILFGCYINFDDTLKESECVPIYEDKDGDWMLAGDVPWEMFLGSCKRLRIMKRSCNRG
B1: IAA5 (Arabidopsis thaliana, UniProt P33078); chain MANESNNLGLEITELRLGLPGDIVVSGESISGKKRASPEVEIDLKCEPAKKSQVVGWPPVCSYRRKNSLERTKSSYVKVSVDGAAFLRKIDLEMYKCYQDLASALQILFGCYINFDDTLKESECVPIYEDKDGDWMLAGDVPWEMFLGSCKRLRIMKRSCNRG
partner | positive tests
ARF12 500-593 (Arabidopsis thaliana, UniProt Q9XID4) | 0
IAA10 (Arabidopsis thaliana, UniProt Q38828) | 4
ARF20 484-590 (Arabidopsis thaliana, UniProt Q9C7I9) | 2
IAA26 (Arabidopsis thaliana, UniProt Q8LAL2) | 1
T1, itself | 2

Mixed results
Molecule | target | assay | test system | setting | how to read | endpoint | value
PhoQ, residues 284 288 289 292 302 303 SACGEM | PhoP, residues 12 14 15 18 19 AWHSL (Escherichia coli, UniProt P23836) | Sort-seq, measured: YFP reporter | E. coli | PhoQ-PhoP variant library, added: 10 µM Mg2+ | relative to: high Mg2+ state, higher = stronger signaling | fold induction | 4.18

Excerpt of the above (mixed results):
Molecule | target | assay | test system | setting | how to read | endpoint | value
PhoQ, residues 284 288 289 292 302 303 SACGEM | PhoP, residues 12 14 15 18 19 AWHSL (Escherichia coli, UniProt P23836) | Sort-seq, measured: YFP reporter | E. coli | PhoQ-PhoP variant library, added: 10 µM Mg2+ | relative to: high Mg2+ state, higher = stronger signaling | fold induction | 4.18
